# Measured values pooled from the literature.
# Lines come from different studies, so protocols differ. “And” joins repeats or separate records; there may be more than shown. ± marks the error that the study gave.
Structure (SMILES),assay,system,setting,scale,endpoint,result
C[C@H]1C[C@H]2CSC(N)=N[C@@]2(c2nc(NC(=O)c3ccc(OC(F)F)cn3)cs2)CO1,measured: total Aβ,"healthy adults, plasma","5 mg once daily, day 10",reference: placebo,percent change from baseline,-31.9%
CC(C)n1c(C2CCNCC2)nc2c([N+](=O)[O-])c(Br)c(Br)cc21,,"patients with AML, bone marrow",all dose levels,reference: baseline,minimum blast change,-100%
CCN(Cc1nc2c(N)nc3cc(-c4cc[nH]n4)ccc3c2[nH]1)C(C)=O,,human,"intratumoural, 2000 µg",,duration of response,22.9 months
C=CCn1c(=O)c2cnc(Nc3ccc(N4CCN(C)CC4)cc3)nc2n1-c1ccc2c(n1)[C@@](O)(CC)CC2,,"human, target lesions","400 mg 5:2 schedule, cycle three",,target lesion reduction,35%
Cc1nc(-c2ccc(OCC(C)C)c(C#N)c2)sc1C(=O)O,,"mouse, chronic hyperuricaemia model, serum",dose not given,,serum uric acid,244 µM and 274 µM and 219 µM and 184 µM and 266 µM
FC(F)(F)Oc1cccc(-c2cnc3ccc(-c4ccncc4)nn23)c1,bioluminescence,"mouse, MDA-MB-231-Luc xenograft","10 mg/kg, day 14",,tumour growth,333% and 400% and 199% and 268% and 184% and 173%
CC(C)C[C@H](NC(=O)[C@@H](Cc1c[nH]c2ccccc12)NC(=O)[C@H](Cc1ccc(O)cc1)NC(=O)[C@H](CO)NC(=O)[C@H](Cc1c[nH]c2ccccc12)NC(=O)[C@H](Cc1c[nH]cn1)NC(=O)[C@@H]1CCC(=O)N1)C(=O)N[C@@H](CCCNC(=N)N)C(=O)N1CCC[C@H]1C(=O)NCC(N)=O,,"Chinese children, central precocious puberty, serum","intramuscular, 22.5 mg day 1, month 6, month 12",,basal FSH level,1.76 IU/L
C[C@H](NC(=O)c1c(C(F)F)nn(C)c1Oc1cccc(C(F)(F)F)c1)c1ccc(C(=O)O)cc1,irRECIST,"human, advanced tumours",500 mg,best overall response,complete response,0%
CC(C)(O)c1coc(S(=O)(=O)NC(=O)c2cc3ccccc3n2Cc2ccc(C3CC3)c3ccccc23)c1,,"mouse, acute hyperuricaemia model, serum","oral, 2 mg/kg",reference: vehicle model,serum uric acid decrease,74.1%
c1ccc(-c2n[nH]cc2-c2ccnc3ccccc23)nc1,"kinase binding, competitor, MIB/MS competition, measured: CTK1",Candida albicans cell lysate,10 µM,reference: DMSO,log2 fold change,1.09
COc1nnc2ccc(N3CCC(c4ccc(OCCN5CCN(C)C(=O)[C@H]5C)cc4)CC3)nn12,,"cancer patients, plasma","dose not given, 0 to 3 h, monotherapy cohorts",,plasma MCP-1 level,decreased
CC1(C)CCC(CN2CCN(c3ccc(C(=O)NS(=O)(=O)c4ccc(NCC5CCOCC5)c([N+](=O)[O-])c4)c(Oc4cnc5[nH]ccc5c4)c3)CC2)=C(c2ccc(Cl)cc2)C1,"cell kill, PI exclusion flow cytometry","neoplastic T lymphocytes, human, thawed lymph node",24 h,,EC50,6.3 nM
CC(=O)NCC(=O)NCC(=O)N[C@H](C(=O)N[C@@H](Cc1ccc(O)cc1)C(=O)N[C@@H](CO)C(=O)N[C@H]1CSSC[C@@H](C(=O)N[C@@H](CCCNC(=N)N)C(=O)N2CCC[C@H]2C(=O)N[C@@H](CCC(N)=O)C(=O)N[C@@H](CCCNC(=N)N)C(=O)NCC(=O)NCCC(=O)N[C@@H](CCCCNC(=O)CN(CC(=O)NCCCC[C@H](NC(=O)CCNC(=O)CNC(=O)[C@H](CCCNC(=N)N)NC(=O)[C@H](CCC(N)=O)NC(=O)[C@@H]2CCCN2C(=O)[C@H](CCCNC(=N)N)NC(=O)[C@@H]2CSSC[C@H](NC(=O)[C@H](CO)NC(=O)[C@H](Cc3ccc(O)cc3)NC(=O)[C@@H](NC(=O)CNC(=O)CNC(C)=O)[C@@H](C)O)C(=O)N[C@@H](Cc3c[nH]cn3)C(=O)N[C@@H](Cc3ccccc3)C(=O)NCC(=O)N[C@@H](C)C(=O)N[C@@H](CC(C)C)C(=O)N[C@@H]([C@@H](C)O)C(=O)N[C@@H](Cc3c[nH]c4ccccc34)C(=O)N[C@@H](C(C)C)C(=O)N2)C(N)=O)C(=O)CCN)C(N)=O)NC(=O)[C@H](C(C)C)NC(=O)[C@H](Cc2c[nH]c3ccccc23)NC(=O)[C@H]([C@@H](C)O)NC(=O)[C@H](CC(C)C)NC(=O)[C@H](C)NC(=O)CNC(=O)[C@H](Cc2ccccc2)NC(=O)[C@H](Cc2c[nH]cn2)NC1=O)[C@@H](C)O,,healthy BALB/c mice,"subcutaneous, 0.16 mg/kg, 14 d, single dose",,haemoglobin,167 g/L
O=C(O)CSc1nnc(Br)n1-c1ccc(C2CC2)c2ccccc12,,"mouse, chronic hyperuricaemia model, serum",dose not given,,serum uric acid,620 µM and 558 µM and 603 µM and 310 µM and 591 µM and 260 µM
C[C@H](Oc1ccc(Br)cc1-c1ccon1)C(=O)O,first response peak,"human, tibialis anterior muscle","800 mg, 30 Hz, single ascending dose",,difference from placebo,-3.8%
CCCS(=O)(=O)NC(=O)c1cc2ccccc2n1Cc1ccc(C2CC2)c2ccccc12,,"mouse, acute hyperuricaemia model, serum","oral, 2 mg/kg",reference: vehicle model,serum uric acid decrease,80%
Cc1c(Cl)c(C)[n+]([O-])c(Cl)c1-c1noc(-c2cc(O)c(O)c([N+](=O)[O-])c2)n1,"sulfation, substrate",human intestinal S9,,,Vmax,1.36 ± 0.039 pmol/min/mg protein
CC(C)c1c(C(=O)Nc2ccccc2)c(-c2ccccc2)c(-c2ccc(F)cc2)n1CC[C@@H](O)C[C@@H](O)CC(=O)O,ELISA,"cynomolgus monkey, male, plasma","40 mg/kg or 25 mg/kg, day 86",reference: pretreatment,plasma PCSK9 change,297%
Cc1cc([C@H]2C[C@H]3[C@@H](CF)SC(N)=N[C@@]3(c3ccc(F)cc3F)CO2)on1,measured: Aβx-40,"wild-type mouse, brain","subcutaneous, 100 mg/kg, 14 h",,brain Aβ40 level,2.96 ng/g
CC(C)c1cccc2c(-c3ccccc3)cc(-c3ccc(-c4ccc(C(=O)O)cc4)[nH]3)nc12,,"CD-1 mouse, male","oral, 5 mg/kg, 7 days dosing, 4 weeks after last dose",,testis weight,0.13 ± 0.02 g
CN1CCc2cc(Cl)c(O)cc2[C@@H](c2ccccc2)C1,,mouse nucleus accumbens slices,"10 µM, added: 20 Hz electrical stimulation",,stimulus-evoked dopamine sensor fluorescence,inhibited
NNC(=O)c1ccncc1,ELISA,"Mycobacterium marinum-infected mice, spleen","intraduodenal, 10 mg/kg three times daily, 3 days post infection",,TNF-α level,116 pg/mL and 117 pg/mL
O=P(O)(O)C(Cl)(Cl)P(=O)(O)O,"astrogliosis, immunostaining","Mus musculus, sham-operated, hippocampal fissure","dose not given, day 1",reference: total area,GFAP-positive area,3.57%
C[C@@H](NC(=O)N1C(=O)[C@H](Cc2ccnc(N)c2)[C@H]1C(=O)O)C1CCCCC1,,human,"iv infusion, 0.6 mg/kg/h, 24 h",,ACT Emax,120 s
CCN1CCN(Cc2ccc(Nc3ncc(F)c(-c4cc(F)c5nc6n(c5c4)[C@H](C)CCC6)n3)nc2)CC1,RECIST v1.1,advanced solid tumour patients,"400 mg, Phase Ia monotherapy",,disease control rate,100%
Cc1cc(C)c(CNC(=O)c2cc(Cl)c3c(c2C)O[C@@](C)([C@H]2CC[C@H](N(C)C)CC2)O3)c(=O)[nH]1,IWG 2007 criteria,"human, relapsed/refractory B-cell NHL",dose not given,,best overall response PD,11%
CC(c1cc2ccccc2s1)N(O)C(N)=O (stereo not drawn),,human blood,"3 µM, added: A23187",,12-HETE level,8470 ± 2990 pg/mL
COc1ccccc1[C@H](Cn1c(=O)n(C(C)(C)C(=O)O)c(=O)c2c(C)c(-c3ncco3)sc21)OC1CCOCC1,"[1-13C]acetate infusion, isotopomer analysis","overweight or obese healthy men, plasma VLDL-TG palmitate","oral, 200 mg single dose, 5 h post-dose, added: oral fructose",,fractional hepatic DNL,5.2 % new palmitate
O=C(O)CNC(=O)Cc1ccccc1,,"ventricular cardiomyocytes, C57BL/6 mouse","dose not given, 0.844 s",,sarcomere length,1.63 µm
COc1ccc([C@@H](O)c2cc(-c3ncnc4cc(N5CCOCC5)ccc34)c(F)cc2Cl)nn1,RECIST version 1.1,"patients, advanced solid tumours","250 mg twice daily, added: avelumab",reference: patients,disease control rate,1%
OC(CCN1CCCCC1)(c1ccccc1)C1CC2C=CC1C2 (stereo not drawn),resting-state EEG,healthy elderly humans,"oral, 4 mg, eyes closed, LS mean",,"EEG power, delta, Fz-Cz",7.7 µV²
N#Cc1ccc2c(-c3ccncc3)c(-c3ccc(F)cc3)nn2c1,"kinase binding, competitor, MIB/MS competition, measured: ENV7",Candida albicans cell lysate,10 µM,reference: DMSO,log2 fold change,0.819
NC(=O)c1cnc2[nH]ccc2c1N[C@@H]1[C@@H]2CC3C[C@H]1C[C@@](O)(C3)C2,"CD4+ memory T cells, flow cytometry","Japanese humans, peripheral blood",200 mg single dose,reference: baseline,percent change,0.62%
CN(C)C(=O)c1cc2cnc(Nc3ccc(N4CCNCC4)cn3)nc2n1C1CCCC1,"RNA-seq GSEA, measured: HALLMARK_PEROXISOME",MB002 tumour,"concentration not given, in vivo","reference: vehicle, direction not given",GSEA enrichment score,0.273
CCOCc1nc(O)c(-c2nnc(Cc3ccc(Cl)cn3)o2)c(O)c1-c1c(OC)cccc1OC,,renal hypertensive rat,"po, 0.2 mg/kg once daily, trough",reference: vehicle,ejection fraction,increased
C=CC(=O)Nc1cc(Nc2ncc(C(=O)OC(C)C)c(-c3cn(C)c4ccccc34)n2)c(OC)cc1N(C)CCN(C)C,,"mice, NCI-H2073 vs LXF 2478 xenografts","highest clinically relevant dose, unit not given",reference: NCI-H2073 minus LXF 2478,growth rate difference,0.0171
[Cl-].[Cl-].[Pt+2].[Ru+2].c1ccc(-c2nccnc2-c2ccccn2)nc1.c1cnc2c(c1)ccc1cccnc12.c1cnc2c(c1)ccc1cccnc12,,,"concentration not given, second substitution step, added: L-methionine",,activation enthalpy,10 ± 0.956 kcal/mol
O=C(O)/C=C/c1nccc2c3ccccc3n(Cc3ccc(Br)cc3)c12,,"mouse, acute hyperuricaemia model","oral, 2 mg/kg",,serum uric acid,881 µM
N#Cc1ccc2c(c1)[C@H]1CCCN(C(=O)c3ccc4[nH]cnc4c3)[C@H]1C2,,"human, urine","10 mg, 336 h, day 14 over day -1",reference: placebo and baseline,total urinary corticosteroids,108 % change
CC(C)NCC(O)c1ccc(O)c(O)c1 (stereo not drawn),,"ventricular cardiomyocytes, C57BL/6 mouse","dose not given, 0.848 s",,sarcomere length,1.5 µm
Cc1n[nH]c2ccc(-c3cc(OC[C@@H](N)Cc4ccccc4)cnc3-c3ccoc3)cc12,"kinase binding, competitor, MIB/MS competition, measured: CMK1",Candida albicans cell lysate,1 µM,reference: DMSO,log2 fold change,0.154
N#CCC1CCN(c2nc(Nc3ccc(N4CCC(O)CC4)cc3)c3c(=O)[nH]ncc3n2)CC1,Olink multiplex,"human, serum","20 mg, day 29, unit not given",reference: baseline,osteopontin level change,-1.05
CN(C(=O)n1cnc(-c2ccc[n+]([O-])c2)c1)C1CCCCC1,,"mice, formalin paw test","0.3 mg/kg, late phase, added: anandamide 5 mg/kg i.p.",direction not given,licking time score,7
N=C(N)NCCC[C@H](NC(=O)[C@H](CCCNC(=N)N)NC(=O)[C@H](CCCCN)NC(=O)[C@H](CCC(N)=O)NC(=O)[C@H](CCCCN)NC(=O)[C@H](Cc1ccc(O)cc1)NC(=O)[C@@H](N)CCCCN)C(=O)N[C@@H](CO)C(=O)N[C@@H](Cc1ccc(O)cc1)C(=O)N[C@@H](CCCCN)C(=O)O,,dentin hypersensitivity patients aged 30-40 years,"5 µg/tooth, day 36, unit not given",reference: baseline,VAS change,-41.3 ± 29.5
[Cl-].[Cl-].[Pt+2].[Ru+2].c1ccc(-c2nc3cc4ccccc4cc3nc2-c2ccccn2)nc1.c1cnc2c(c1)ccc1cccnc12.c1cnc2c(c1)ccc1cccnc12,"chloride substitution, UV-vis kinetics",aqueous buffer,"pH 7.2, 35 °C, second substitution step, added: L-methionine",,activation free energy,18.9 ± 0.956 kcal/mol
Nc1nc2cc(-c3ccc4ncc(C(=O)N5CCOCC5)n4c3)ccc2o1,RECIST v1.1,advanced solid tumour patients,dose not given,,median partial response duration,7 months
CC(=O)Oc1cc2c(s1)CCN(C(C(=O)C1CC1)c1ccccc1F)C2 (stereo not drawn),"platelet aggregation, light transmittance aggregometry","human, platelet-rich plasma","dose not given, 4 to 6 h, IPA above 90 %, added: ADP 20 µM",reference: patients,patients with IPA above threshold,4.8%
c1ccc(-c2cc(-c3ccccc3)n(Cn3ccnc3)n2)cc1,,"rat, STZ-nicotinamide diabetic","75 mg/kg, 168 h, full-thickness excision wound",,wound size,17.4 mm

# Excerpt of the above:
Structure (SMILES),assay,system,setting,scale,endpoint,result
N#CCC1CCN(c2nc(Nc3ccc(N4CCC(O)CC4)cc3)c3c(=O)[nH]ncc3n2)CC1,Olink multiplex,"human, serum","20 mg, day 29, unit not given",reference: baseline,osteopontin level change,-1.05
Cc1n[nH]c2ccc(-c3cc(OC[C@@H](N)Cc4ccccc4)cnc3-c3ccoc3)cc12,"kinase binding, competitor, MIB/MS competition, measured: CMK1",Candida albicans cell lysate,1 µM,reference: DMSO,log2 fold change,0.154
N#Cc1ccc2c(-c3ccncc3)c(-c3ccc(F)cc3)nn2c1,"kinase binding, competitor, MIB/MS competition, measured: ENV7",Candida albicans cell lysate,10 µM,reference: DMSO,log2 fold change,0.819
O=C(O)CSc1nnc(Br)n1-c1ccc(C2CC2)c2ccccc12,,"mouse, chronic hyperuricaemia model, serum",dose not given,,serum uric acid,620 µM and 558 µM and 603 µM and 310 µM and 591 µM and 260 µM
OC(CCN1CCCCC1)(c1ccccc1)C1CC2C=CC1C2 (stereo not drawn),resting-state EEG,healthy elderly humans,"oral, 4 mg, eyes closed, LS mean",,"EEG power, delta, Fz-Cz",7.7 µV²
O=C(O)CNC(=O)Cc1ccccc1,,"ventricular cardiomyocytes, C57BL/6 mouse","dose not given, 0.844 s",,sarcomere length,1.63 µm
COc1nnc2ccc(N3CCC(c4ccc(OCCN5CCN(C)C(=O)[C@H]5C)cc4)CC3)nn12,,"cancer patients, plasma","dose not given, 0 to 3 h, monotherapy cohorts",,plasma MCP-1 level,decreased
